Results from different studies.
Protocols differ between the studies behind these lines. Values joined by “and” are separate records of one study, mostly repeats; a detail may differ. ± gives the spread as reported.

CCOC(=O)C1(Cc2ccc(-c3ccccc3)cc2)Oc2cc(F)ccc2N(Cc2ccc(-c3ccccc3)cc2)C1=O (stereo not shown)
inhibition (Setaria viridis; fresh weight, greenhouse postemergence; postemergence, 150 g ai/ha, 21 days): 51.8 ± 2.08%

COc1cccc(COc2ccc(Nc3ncnc4ccc(-c5ccc(S(=O)(=O)N6CCOCC6)cc5)cc34)cc2Cl)c1
inhibition (Trypanosoma cruzi; intracellular amastigote growth, β-galactosidase CPRG; 3T3, Tulahuen, β-galactosidase-expressing; 10 µM, 96 h): 5%

CCOC(=O)C1(Cc2ccc(F)cc2)Oc2cc(F)ccc2N(Cc2ccc(F)cc2)C1=O (stereo not shown)
inhibition (Setaria viridis; fresh weight, greenhouse postemergence; postemergence, 150 g ai/ha, 21 days): 56.02 ± 0.54%

CCc1nn(C)c2nc(-c3ccc(C(=O)O)cc3)nc(NCc3ccccc3)c12
inhibition (Cryptosporidium parvum; parasite growth, immunofluorescence imaging; HCT-8, Iowa; 24.7 nM): -14.5% and 1.87%

CNCCO.O=C(O)C(Cl)Cl
inhibition (Solanum nigrum; herbicidal activity; 15 mg/mL, 21 days, pre-emergence greenhouse): 0%

CCOC(=O)C1(Cc2ccc(OC)cc2)Oc2cc(F)ccc2N(Cc2ccc(OC)cc2)C1=O (stereo not shown)
inhibition (Setaria viridis; fresh weight, greenhouse postemergence; postemergence, 150 g ai/ha, 21 days): 44 ± 1.47%

c1ccc(COc2ccc(Nc3ncnc4ccc(-c5cccc(N6CCOCC6)c5)cc34)cc2)cc1
inhibition (Trypanosoma cruzi; intracellular amastigote growth, β-galactosidase CPRG; 3T3, Tulahuen, β-galactosidase-expressing; 10 µM, 96 h): 37%

O=C1NC2(CC2)COc2ncc(F)cc2[C@H]2COCCN2c2ccn3ncc1c3n2
APTT (Sprague-Dawley rats, male, blood; oral, 5 mg/kg/day, end of recovery, 4-week subacute toxicity): 19.3 ± 1.4 s

CC(O)CN(CC(C)O)CC(C)O.O=C(O)C(Cl)Cl (stereo not shown)
inhibition (Chenopodium album; herbicidal activity; 15 mg/mL, 21 days, post-emergence greenhouse): -60%

Cc1cc(-c2ccc3ncnc(Nc4ccc(OCc5cccc(F)c5)c(Cl)c4)c3c2)cnc1N1CCOCC1
inhibition (Trypanosoma cruzi; intracellular amastigote growth, β-galactosidase CPRG; 3T3, Tulahuen, β-galactosidase-expressing; 10 µM, 96 h): 49%

CCOC(=O)C1(Cc2c(F)cccc2F)Oc2cc(F)ccc2N(Cc2c(F)cccc2F)C1=O (stereo not shown)
inhibition (Setaria viridis; fresh weight, greenhouse postemergence; postemergence, 150 g ai/ha, 21 days): 43.7 ± 2.01%

O=S(=O)(c1ccc(-c2ccc3ncnc(Nc4ccc(OCc5cccc(Br)c5)c(Cl)c4)c3c2)cc1)N1CCOCC1
inhibition (Trypanosoma cruzi; intracellular amastigote growth, β-galactosidase CPRG; 3T3, Tulahuen, β-galactosidase-expressing; 10 µM, 96 h): 7%

O=C(NNc1ccccc1)c1nnc(C23CC4CC(CC(C4)C2)C3)o1
inhibition (Rhizoctonia solani; microbial growth; 50 µg/mL): 49.7%

Excerpt of the above:
CNCCO.O=C(O)C(Cl)Cl
inhibition (Solanum nigrum; herbicidal activity; 15 mg/mL, 21 days, pre-emergence greenhouse): 0%
